Measurements gathered from unrelated publications.
Numbered parts are unrelated; each lists some results of a single study.

Set 1
Target: Prothrombin, mature alpha-thrombin (F2, Homo sapiens, UniProt P00734)
Technique: aptamer microarray, sandwich
Molecule type: DNA with 2'F-ANA
Sample: in vitro
Tested at: 200 nM
Setting: whole 15-mer aptamer, many near background
Added: Cy3 exosite-II aptamer, 400 nM
Reading: higher = stronger binding
Oligonucleotide: GGTTGGTGTGGTTGG
Modification	mean fluorescence intensity [a.u.]
2'F-ANA at 3 6 7 8 9 10 11 14	432
2'F-ANA at 1 2 4 5 7 13 14 15	46.4
2'F-ANA at 2 5 9 12	241
2'F-ANA at 3 5 6 7 8 9 11 12 14	58
2'F-ANA at 2 7 8 10 11 14	85.6
2'F-ANA at 1 7 10 11 12 13 14	46.6
2'F-ANA at 2 5 6 7 10 12 13 15	46.7
2'F-ANA at 3 6 9 10 12 13	519
2'F-ANA at 2 4 8 9 13 14	90.1
2'F-ANA at 2 4 9 10 12 13 14 15	67.1
2'F-ANA at 2 3 4 6 7 9 10 11	205
2'F-ANA at 2 3 4 6 7 10 11 12	285
2'F-ANA at 2 8 10 11 12 15	144
2'F-ANA at 1 3 4 7 8 10 11 12	95.7
2'F-ANA at 2 3 7 8 14 15	486
2'F-ANA at 1 2 4 6 7 8 9 12 15	279
2'F-ANA at 2 3 4 6 7 10 12 13 15	449

Set 2
Target: RNA binding protein fox-1 homolog 2, RRM domain, GST-SBP tag (RBFOX2, Homo sapiens, UniProt O43251-10, residues 100-194)
Technique: RNA Bind-n-Seq
Molecule type: RNA
Sample: in vitro
Tested at: 365 nM
Setting: natural RNA segment, single round, ends assumed
Baseline: no-protein control
Reading: higher = stronger binding
Shared flanks, not repeated: GGGAGUUCUACAGUCCGACGAUC … UGGAAUUCUCGGGUGCCAA
Residues (chain): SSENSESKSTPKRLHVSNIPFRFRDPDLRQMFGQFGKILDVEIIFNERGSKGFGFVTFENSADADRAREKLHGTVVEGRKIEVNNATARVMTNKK
Oligonucleotide	RBNS enrichment (R)
UUAGUGCCACCAGACUAGACCUGUAUCAUUCAUGGUAUAAAUUUUACUCUUGCAACAUAACUACCAUCUCUCUCUUAAAACGAGAUCAGGUUAGCAAAUGAUGUAAAAGA	0.222
CUGGAGGAGACUCAGGAAGCAGAGGCGUCCCUGCCGCUGCCCUUGGCCCUGCAAGCACAUCAUGACCCUUUCUGGCAGCCUCUUGGUGCUCUGGGUAGUGAGGGAUGACC	0.404
UAAGGGGGAAAUUUCAAAUUUAUGCCUUAUAAAAUCACACUGGAAAAAAAUUGUCCCAGAUGCGUUAAGAAAUAAUAACACCCAGGGAUACUCACCCAUGCAUAGCUACC	0.555
UCAUACACCCUUUUGCUUACCUAAUUUCAAGAACAAAACAAACAACAAAAAAAUGCUACUCCUAGUUCAGAUGUUGUGCCCUUCAUUUCUAAAGCCGAUGUUUUGCCCUC	0.628
UGGAUUGCCUUACUUCUCUUGCCUUAAAUAUAUCCCAUAUAUUUAAUAUGUCAAAAAGGGCUUGAGGUGAAUUUCAUUAAAUGGAAUAAUAUGAUGCCACUUUGCAGCUA	0.389
CAGUGCUCUUGAGCUGGGUCUCAGUCCCCUCCCAUGUCCUGUGCUCUGCCGCCACUGUUUUCAUUGUUGUGUUCUCGUUGUGAUUGUUAAGACUCACACUCCUGGCUCAG	1.67
UACCUCUGGGGACAGCUGGCAUGCCUUUGGCUUUGUGUAGAGUAGGGUGGUGAGACCCUUCCUGGCUCCCCUGCUUUGUGAGUUAGGCGUGCUGGGGCACCCUCCUGGCC	1.42
CCUGCCCGUGGGCUUGGGGAUGGGAGGCCCCUCAGGUCCUGGAGGUGGGGCGGGAACACACAAAUCCAGCCCCCUUUCUCCUGGCUCCCUGCUCUGGCCCUGCCCCAGAG	0.546
AAACUAAUUAAUAGCUUUGGACACUUAAAAGAGCUCUAAAUUUGCUUGUACAUAAAGGCUUAAUUUGUUUUCCUUGUUAGGGUCAAGGGUGUCCUCCACUCUUUAACAGC	1.12
CAGCCCAUGCCCACCUGCCCAUCACAGGGUUGGGCCCAGAUCUGGUCCCUUGCAGCUAGUUUUCUAGAAUUUAUCACACUUCUGUGAGACCCCCACACCUCAGUUCCCUU	0.209
CACGCUCAGUGUCUUUGAUAAAAUAGUGUCUUUUUUUCAUGUGUUUUUAUUUCAUUUCUAAGAUUUUUUUUUUAACACUCCGUAUUCUGGAGCAUUUUUUUACAAUUUGG	1.03
CUUUUUUUUAUUAGUAAAAGCAAGUCUCUUUGAAUUCUUCAUUCUAGAUUUGUACAAAUGCUUUUUUUGUCCGUCCUCGUGGGGUUUUUUUUCUCCCCCUUUUCUUUGUU	0.713

Set 3
Target: Histone acetyltransferase KAT6A, winged helix 1, GST fusion (KAT6A, Homo sapiens, UniProt Q92794, residues 1-85)
Technique: protein binding microarray
Molecule type: double-stranded DNA, one strand shown
Sample: in vitro
Tested at: not given
Setting: 8-mer, flanks averaged, mean of 2 arrays, mostly near background
Baseline: not given
Reading: higher = stronger binding
Residues (chain): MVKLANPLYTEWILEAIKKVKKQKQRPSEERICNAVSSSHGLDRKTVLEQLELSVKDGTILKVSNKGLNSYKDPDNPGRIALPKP
Oligonucleotide	E-score
AACTACCC	-0.0874
TGGGTACA	-0.00668
CCGAGAAA	0.0782
AATCACAA	-0.145
ACTGTAAT	-0.0503
GTGTAGGA	-0.207
CACTAGAG	-0.0236
GATTCTAA	-0.196
GGATGTGA	-0.142
GACTCGTA	-0.0874
ACCTCGGG	0.0819
AGTGTTTC	-0.00339
ATCCTTAC	-0.0251
CTGACCGC	0.314
ACGGCCGG	0.43
AGTTTCGA	-0.128
GCCGCCAC	0.4

Set 4
Target: Fragile X messenger ribonucleoprotein 1, C-terminal low-complexity region (Fmr1, Mus musculus, UniProt P35922)
Technique: RNA Bind-n-Seq
Molecule type: RNA
Sample: in vitro
Tested at: 200 nM
Setting: whole 134-nt RNA, ends assumed
Added: 150 mM KCl
Baseline: input library
Reading: higher = stronger binding
Shared flanks, not repeated: GGGAGUUCUACAGUCCGACGAUC … UGGAAUUCUCGGGUGUCAAGG
Oligonucleotide	log2 enrichment
CCUCAAGUCCUGUGCUACACAUCGUAUGUACCGAAUCGGGUGGUGGGGUGGGAAAGUAUUAUGUUACGCCGUUCGGAUCUGCACUUCCAG	1.13
AGUCCUGUGCUACACAUCGUAUGUACCGAAUCGGCCCCGGGCCCCGGGGCCCCGGGGAAAGUAUUAUGUUACGCCGUUCGGAUCUGCACU	-0.916
ACCUUCACGGCAUGGUGCAACUCCCACCUGCGGAAGGCAGGCACACAGAUCGAGAACAUUGAUGAGGACUUCCGAGACGGGCUCAAGCUC	0.946
CUGUGCUACACAUCGUAUGUACCGAAUCGGGAAAAAAAGGGGAAAAAAAGGGAAAAAAAGGGAAAGUAUUAUGUUACGCCGUUCGGAUCU	-0.408
UCCUGUGCUACACAUCGUAUGUACCGAAUCAAAUUUUUUUAAAUUUAAACCCCCCCAAAAAAGUAUUAUGUUACGCCGUUCGGAUCUGCA	0.235
AGUCCUGUGCUACACAUCGUAUGUACCGAAUCGGGGAGGGGAGGGGUUUUUUUGGGGAAAGUAUUAUGUUACGCCGUUCGGAUCUGCACU	0.95
GCAGGAAGUAAAAACAAAUGGAAAUGCUAAAGAUAGUGGCAGGGGUGGGGGUUGCUAAGGAAAGGGUGGGAUGGGAGUGGGUAAAGAGUU	0.525
AGUCCUGUGCUACACAUCGUAUGUACCGAAUCGGGGAAAAAAAGGGGUGGGGAGGGGAAAGUAUUAUGUUACGCCGUUCGGAUCUGCACU	0.739
UCCUCAAGUCCUGUGCUACACAUCGUAUGUACCGAAUCGGUUGGUUGGUUGGAAAGUAUUAUGUUACGCCGUUCGGAUCUGCACUUCCAG	0.39
AAGUCCUGUGCUACACAUCGUAUGUACCGAAUCGGGCCCCGGCCCCGGGGCCCCGGGAAAGUAUUAUGUUACGCCGUUCGGAUCUGCACU	-1.65
CCUGUGCUACACAUCGUAUGUACCGAAUCGGGAAAAAAGGGGAAAAAAGGAAAAAAGGGGAAAGUAUUAUGUUACGCCGUUCGGAUCUGC	-0.41
ACCAUGCAGGUGGGCAUCUUUGGGAAGUGGGGCAAGGGGGGGAUCGGGAGGGGGGUAACACUUUGGGAACAGGUGGUCCCAGGUCGUUUC	0.721
UCAAGUCCUGUGCUACACAUCGUAUGUACCGAAUCGGUGGUUUUUUUGGAAAGGAAAGUAUUAUGUUACGCCGUUCGGAUCUGCACUUCC	-0.567
UGGAAGUGGCGCUGGCGCCUGAAGAGUUGGAGCUGGAUCCUAUGGCCAUGACCCAGAAGUAUGAGGAGCAUGUGCGGGAGCAGCAGGCUC	0.396

Set 5
Target: Centromere-binding protein 1, full length, His-tagged (CBF1, Saccharomyces cerevisiae, UniProt P17106, residues 1-351)
UniProt P17106, sequence (whole entry, looked up): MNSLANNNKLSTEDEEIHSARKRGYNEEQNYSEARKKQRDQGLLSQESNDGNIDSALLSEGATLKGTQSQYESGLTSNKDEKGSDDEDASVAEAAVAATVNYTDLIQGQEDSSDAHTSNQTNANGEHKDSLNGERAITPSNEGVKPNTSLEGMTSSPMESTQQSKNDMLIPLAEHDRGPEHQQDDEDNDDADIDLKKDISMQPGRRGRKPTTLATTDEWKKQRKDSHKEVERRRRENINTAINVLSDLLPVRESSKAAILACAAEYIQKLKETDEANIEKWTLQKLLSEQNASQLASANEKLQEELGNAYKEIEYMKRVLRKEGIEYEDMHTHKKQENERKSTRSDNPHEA
Technique: competition protein-binding microarray
Molecule type: double-stranded DNA, one strand shown
Sample: in vitro
Tested at: 2 µM
Setting: whole 60-bp probe, lowest competitor level
Added: Pho4 competitor, 0.05 µM
Reading: higher = stronger binding
Shared flanks, not repeated: … GTCTTGATTCGCTTGACGCTGCTG
Oligonucleotide	fluorescence intensity
TGCGCAACAACTTGTGAGGTGGGTGTATGTCTAGAA	71 a.u.
CTTCTGTAAATTTGGCACGTGGGTGGACGCGCCCCG	1290 a.u.
TGTGTCATTTCGACGTTCGTGATGGCAAAACGATGC	157 a.u.
TGCGCAACAACTTGGCAAGTGGGTGTATGTCTAGAA	84.2 a.u.
AAATTACTAAGTTGTGAGGTGGGTGACGCCGTATGA	77.2 a.u.
CTTCTGTAAATTTTTCACGTGCTCTGACGCGCCCCG	987 a.u.
CTAACGAAGGTTTGGAGTGTGGGTGACAAGCCAAGT	69.7 a.u.
CTCGTCTGACGCGGAAACGTGCGGAAAAAAATCTCC	111 a.u.
AACGACACCGGCACCTTCGTGACGGCCGACTAATGG	64.2 a.u.
GGTCGCACACACACCCCCGTGATGGGCGATATATAG	237 a.u.
CGTCCTAGTGATTTTCACGTGTAATCCATGAGGAAG	859 a.u.
AGGTTTTGCGGCCATCACGTTCGTCGGGACATATGA	126 a.u.
AAAGCGGTAATTTTTCACGTGGCATCACATATCTAT	951 a.u.
CTTCCTTCTTTGAAACACGTTTCTTAATTGCACTTG	128 a.u.
CTAACGAAGGTTTGAATAGTGGGTGACAAGCCAAGT	76.7 a.u.
GAAGATAGCGGATCGCACGATGGCTCTAACGTTAGA	65.4 a.u.
